Measurements from different studies.
Lines come from different studies, so protocols differ. “And” joins repeats or separate records; there may be more than shown. ± marks the error that the study gave.

SMILES | assay | test system | conditions | endpoint | result
N#C[C@@]1(n2ccc(N)nc2=O)O[C@H](CO)[C@@H](O)[C@H]1O |  | CD-1 mouse, lung | intravenous, dose not given, 7 h | concentration | 1540 nM and 1220 nM and 830 nM
C[C@]1(CO)Cc2ncn(-c3ccc(C#N)c(Cl)c3)c2C(=O)O1 |  | human, Chinese | 80 mg single dose | subjects with drug-related dizziness | 33.3%
COc1cc2c(Oc3ccc4[nH]c(C)cc4c3F)ccnc2cc1OCC1(N)CC1 |  | paediatric recurrent refractory sarcoma | concentration not given, whole group | grade 1 or 2 Hematuria | 17.6%
CCCCCOc1ccc(-c2ccc(-c3ccc(C(=O)N[C@H]4C[C@@H](O)[C@@H](OCC[N+](C)(C)C)NC(=O)[C@@H]5[C@@H](O)[C@@H](C)CN5C(=O)[C@H]([C@@H](C)O)NC(=O)[C@H]([C@H](O)[C@@H](O)c5ccc(O)cc5)NC(=O)[C@@H]5C[C@@H](O)CN5C(=O)[C@H]([C@@H](C)O)NC4=O)cc3)cc2)cc1 |  | adult patients not in ICU, plasma | intravenous, 400 mg loading dose, after first dose, geometric mean | Cmin | 2190 ng/mL
O=C(O)CCCOc1ccc(F)cc1-c1cc(-c2ccccc2C(F)(F)F)n(-c2ccccc2)n1 | refers to: Ca | Crl:CD(SD) rats, female, blood | iv, 25 µg/kg, 14 days | blood chemistry | 9.7 ± 0.3 mg/dL
[Cl][212Pb][Cl] | refers to: 212Pb | athymic mouse, C4-2 prostate xenograft, femur | intravenous, 2 h, below quantification limit | tissue uptake | 7.66 ± 0.27 %ID/g
CC(C)[C@@H]1NC(=O)CNC(=O)[C@H](CC(N)=O)NC(=O)[C@H](CCCNC(=N)N)NC(=O)[C@H](Cc2ccc(O)cc2)NC(=O)[C@H](C(C)C)NC(=O)[C@@H](NC(=O)[C@@H](NC(=O)[C@H](CC(N)=O)NC(=O)[C@H](Cc2c[nH]c3ccccc23)NC(=O)[C@H](C)NC(=O)[C@H](Cc2ccccc2)NC(=O)CN)C(C)C)CSSC[C@@H](C(=O)N[C@@H](Cc2c[nH]cn2)C(=O)N[C@@H](CCCNC(=N)N)C(=O)N[C@@H](CCCNC(=N)N)C(=O)N[C@@H](C)C(=O)N[C@@H](CC(N)=O)C(N)=O)NC(=O)[C@H](C(C)C)NC(=O)[C@H](CCCNC(=N)N)NC1=O | circular dichroism, refers to: antiparallel β-sheet | PBS | 80 µM, pH 7.4, together with: LPS 1 µM | secondary structure content | 36.4%
C=C(CN(C(=O)c1c(C(F)F)nn(C)c1F)C1CC1)c1ccc(Cl)cc1Cl | static acute toxicity test | zebrafish (Brachydanio rerio) | 1.20 mg a.i./L, 96 h | mortality | 70%
C=CCNc1c(O)cc2c(O)c1C[C@@H](C)C[C@H](OC)[C@H](O)[C@@H](C)/C=C(\C)[C@H](OC(N)=O)[C@@H](OC)/C=C\C=C(/C)C(=O)N2 |  | unresectable or metastatic STS, GIST, other | intravenous, 300 mg/m^2 | patients with sinus bradycardia | 33%
O=C([O-])CN1CCN(CC(=O)[O-])CCN(CC(=O)NCC2CCC(C(=O)N[C@@H](Cc3ccc4ccccc4c3)C(=O)NCCCC[C@H](NC(=O)N[C@@H](CCC(=O)O)C(=O)O)C(=O)O)CC2)CCN(CC(=O)[O-])CC1.[177Lu+3] (some centres unmarked) |  | sodium acetate ascorbate buffer | radiochemical purity above 95% | shelf life | ≤ 3 days
C[C@@H](NC(=O)N1C(=O)[C@H](Cc2ccnc(N)c2)[C@H]1C(=O)O)C1CCCCC1 |  | healthy adult Chinese volunteers | continuous intravenous infusion, 0.3 mg/kg/h, 5-day infusion, CTCAE 5.0 grading | incidence of urine leukocyte esterase positive | 12.5%
O=c1ccc2ccc3occc3c2o1 |  | rat plasma | 1000 ng/mL, 2 weeks, -70 °C, post-preparative stability | accuracy | 95%
Clc1ccc(-c2ccccc2)cc1 |  | rat Sprague-Dawley female, serum | inhalation, 35 µg/rat, 24 h | serum Potassium | 4 ± 0.3 mmol/L
[18FH] |  | BALB/c mouse, small intestine | intravenous, 1 h | tissue uptake | 0.58 ± 0.3 %ID/g

Excerpt of the above:
SMILES | assay | test system | conditions | endpoint | result
Clc1ccc(-c2ccccc2)cc1 |  | rat Sprague-Dawley female, serum | inhalation, 35 µg/rat, 24 h | serum Potassium | 4 ± 0.3 mmol/L
